Assay results pooled from the literature.
Several values in a cell are separate wells, animals, samples, runs or records.
Target: Proto-oncogene tyrosine-protein kinase ROS (ROS1, Homo sapiens, UniProt P08922)

For `CNC(=O)C[C@H](Cc1ccc(C#N)cc1)NC(=O)c1cc(-c2ccc(CN[C@H](C)c3ccc(C)cc3)o2)ccc1Cl`, “activity vs control” read 124% (enzyme activity, inhibitor; 1 µM).
For `COc1cc(Nc2nccc(-c3cnn4nc(OC)ccc34)n2)cc(C(F)(F)F)c1`, the remaining binding was 86% (binding, competition with immobilised ligand; 1 µM).
`C=CC(=O)N1Cc2nc(-c3cc(-c4cc(Cl)cnc4Cl)c(F)cc3F)n(-c3ccncn3)c2C1` has an inhibition of 3.6% (cell-free assay; 1 µM).
For `C=CC(=O)N1CCc2ccc(-n3c(=O)ccc4cnc5ccc(-c6cnn(C)c6)cc5c43)cc21`, the remaining binding was 100% (KINOMEscan; 1 µM; relative to: DMSO control).
Under “activity vs control”, `O=C(Cc1ccc(OCc2ccccc2)cc1)NC1(C(=O)O)CCN(C(=O)c2ccc(-c3cccc(Cl)c3)cc2)CC1` is recorded as 108% (enzyme activity, inhibitor; 10 µM).
The remaining binding of `C=CC(=O)N1CCCC(n2c(=O)c3ncccc3n(Cc3ccc(Oc4ccccc4)cc3)c2=O)C1` (stereo not shown) is reported as 99% (cell-free assay, competition with immobilised ligand; 1 µM).
With `NC(=O)[C@@H](O)C[C@H]1CCc2sc3ncnc(O[C@H]4CC[C@H](N5CCOCC5)CC4)c3c21` the inhibition was 60% (enzyme activity, inhibitor; 10 µM).
With `Cc1cccc(O[C@H]2CCC[C@@H](C(C)CNCc3ccncc3)C2)c1` (relative stereo) the inhibition was -3% (cell-free assay; 10 µM).
With `Nc1ncc2c(n1)-c1c([nH]c3ccc(C4=CCOCC4)cc13)CCC2` the remaining binding was 100% (binding, competition with immobilised ligand; 1 µM).
With `COc1c(Cl)cccc1Nc1c(-c2ccncc2C#C[C@@]2(C)CCCN2C(=O)/C=C/CN(C)C)[nH]c2c1C(=O)NCC2` the remaining binding was 100% (cell-free assay, competition with immobilised ligand; 3 µM).
`O=C=[N][Ru-4]123([n]4c5ccc(O)cc5c5c6c(c7cc(F)c[n+]1c7c54)C(=O)NC6=O)[S+]1CC[S+]2CC[S+]3CC1` (stereo not shown) has a remaining activity of 102% (enzyme activity; 100 nM, human enzyme, together with: 10 µM ATP; relative to: untreated).
With `COCC12C(=O)NC3C4(C(OC)CC1O)C1CC5(O)C(OC)C(O)C(OC(C)=O)(C1C5OC(=O)c1ccccc1)C3(O)C(OC)C24` (stereo not shown) the remaining activity was 104% and 103% (kinase activity, inhibitor, ProQinase kinase profiling; 25 µM; relative to: control).
The inhibition of `CN1CCN(Cc2ccc(-c3ccc(CO[C@H]4CCC[C@@H]4NC(=O)c4cc(-c5cnn(C)c5)cnc4N)cc3)cc2)CC1` is reported as 3% (enzyme activity, inhibitor; 0.1 µM).
`CN1CC[C@@H](COc2cnc(C#N)cc2-c2ccn3nc(NC(=O)C4CC4)cc3c2)C1` has an inhibition of -22% (enzyme activity, inhibitor; 1 µM).
With `C=CC(=O)Nc1cccc(-c2cnc3[nH]cc(C(=O)NC(C)(C)C)c3n2)c1` the inhibition was 2% and 5% (kinase activity; 0.1 µM).
With `C[C@H]1CN(C(=O)c2cn(-c3ccnc(N)n3)c3cc(C#CC4(O)CCCCC4)ccc23)CCN1` the inhibition was -3% (enzyme activity, inhibitor, FRET; 1 µM).

Some of these lines once more:
With `COCC12C(=O)NC3C4(C(OC)CC1O)C1CC5(O)C(OC)C(O)C(OC(C)=O)(C1C5OC(=O)c1ccccc1)C3(O)C(OC)C24` (stereo not shown) the remaining activity was 104% and 103% (kinase activity, inhibitor, ProQinase kinase profiling; 25 µM; relative to: control).
The inhibition of `CN1CCN(Cc2ccc(-c3ccc(CO[C@H]4CCC[C@@H]4NC(=O)c4cc(-c5cnn(C)c5)cnc4N)cc3)cc2)CC1` is reported as 3% (enzyme activity, inhibitor; 0.1 µM).
